Results collected from several papers.
Protocols differ between the studies behind these lines. ± gives the spread as reported.

SMILES	test	system	setting	Cmax
O=CC[C@@H](O)[C@H](O)[C@H](O)CO	HPLC-fluorescence	human patients, plasma	oral, 60 mg/kg/day, cycle 2	606000 ± 277000 nM
CCn1c(=O)c2c(nc(/C=C/c3ccc(OC)c(OC)c3)n2C)n(CC)c1=O	–	healthy human, plasma	oral, 40 mg single dose, geometric mean, with: rifampin 600 mg/day steady state	94.8 ng/mL
C=CC(=O)Nc1cc(Nc2ncc(C(=O)OC(C)C)c(-c3cn(C)c4ccccc34)n2)c(OC)cc1N(C)CCN(C)C	–	human, fasted	oral, 40 mg single dose, geometric mean	7.9 ng/mL
CCOc1cc([C@@H](CS(C)(=O)=O)N2C(=O)c3cccc(NC(C)=O)c3C2=O)ccc1OC	–	healthy human, both sexes, plasma	oral, 30 mg single dose, without rifampicin	290 ng/mL
O=c1[nH]c(=O)c(Cc2cccc(C(F)(F)F)c2)c([C@H]2CC[C@H](c3ccccc3)CC2)[nH]1	–	human, plasma	oral, 450 mg once daily, day 14, geometric mean	469 ng/mL
O=C(Cc1cccc(OC(F)(F)F)c1)Nc1ccc(CCCCc2nnc(NC(=O)Cc3ccccn3)s2)nn1	–	human patients, plasma	oral, 150 mg three times daily fasted, cycle 1 day 15 steady state	1440 ng/mL
CC[C@H](C)[C@H](NC(=O)[C@H](CCC(=O)O)NC(=O)[C@H](CO)NC(=O)[C@@H](NC(=O)[C@@H](N)CO)C(C)C)C(=O)N[C@@H](CCC(N)=O)C(=O)N[C@@H](CC(C)C)C(=O)N[C@@H](CCSC)C(=O)N[C@@H](Cc1cnc[nH]1)C(=O)N[C@@H](CC(N)=O)C(=O)N[C@@H](CC(C)C)C(=O)NCC(=O)N[C@@H](CCCCN)C(=O)N[C@@H](Cc1cnc[nH]1)C(=O)N[C@@H](CC(C)C)C(=O)N[C@@H](CC(N)=O)C(=O)N[C@@H](CO)C(=O)N[C@@H](CCSC)C(=O)N[C@@H](CCC(=O)O)C(=O)N[C@@H](CCCN=C(N)N)C(=O)N[C@H](C(=O)N[C@@H](CCC(=O)O)C(=O)N[C@@H](Cc1c[nH]c2ccccc12)C(=O)N[C@@H](CC(C)C)C(=O)N[C@@H](CCCN=C(N)N)C(=O)N[C@@H](CCCCN)C(=O)N[C@@H](CCCCN)C(=O)N[C@@H](CC(C)C)C(=O)N[C@@H](CCC(N)=O)C(=O)N[C@@H](CC(=O)O)C(=O)N[C@H](C(=O)N[C@@H](Cc1cnc[nH]1)C(=O)N[C@@H](CC(N)=O)C(=O)N[C@@H](Cc1ccccc1)C(=O)O)C(C)C)C(C)C	immunoradiometric	human, plasma	subcutaneous, 56.5 µg once weekly, day 1	0.461 ± 0.0933 ng/mL
COc1cc2nccc(Oc3ccc(NC(=O)NC4CC4)c(Cl)c3)c2cc1C(N)=O	–	human, plasma	oral, 5 mg, geometric mean, with: ketoconazole 400 mg/day	51.2 ng/mL
CC(C)[C@@H](CS(=O)(=O)C(C)C)N1C(=O)[C@@](C)(CC(=O)O)C[C@H](c2cccc(Cl)c2)[C@H]1c1ccc(Cl)cc1	–	human, plasma	oral, 60 mg, old tablet, fasted, geometric LS mean	337 ng/mL
C=C(C)[C@@H]1CC[C@]2(NCCN3CCS(=O)(=O)CC3)CC[C@]3(C)[C@H](CC[C@@H]4[C@@]5(C)CC=C(C6=CC[C@@](CF)(C(=O)O)CC6)C(C)(C)[C@@H]5CC[C@]43C)[C@@H]12	–	human, HIV-1 treatment-naive, plasma	oral, 10 mg once daily, day 8	60 ng/mL
C/C(=C\c1csc(C)n1)[C@@H]1C[C@@H]2O[C@]2(C)CCC[C@H](C)[C@H](O)[C@@H](C)C(=O)C(C)(C)[C@@H](O)CC(=O)N1	LC-MS/MS	human patients, plasma	intravenous infusion, 70 mg, 3 h infusion	301 ng/mL
COC(=O)N[C@H](C(=O)N1CCC[C@H]1c1nc(-c2ccc3c(c2)O[C@@H](c2ccccc2)n2c-3cc3cc(-c4c[nH]c([C@@H]5CCCN5C(=O)[C@@H](NC(=O)OC)C(C)C)n4)ccc32)c[nH]1)C(C)C	–	healthy adult humans, plasma	oral, 50 mg, fixed-dose combination with grazoprevir 100 mg, fasted	140 nM
COc1ccc2nc([S@@+]([O-])Cc3ncc(C)c(OC)c3C)[nH]c2c1	–	human, CYP2C19 poor metabolizers, plasma	oral, 40 mg/day, day 1	9310 ± 4860 ng/mL
CCCc1nn(C)c2c(=O)[nH]c(-c3cc(S(=O)(=O)N4CCN(C)CC4)ccc3OCC)nc12	–	healthy male human, plasma	oral, dose not given, day 8, adjusted geometric mean, with: sacubitril/valsartan	168 ng/mL
CN(C)CCCN1c2ccccc2Sc2ccc(Cl)cc21	–	human, plasma	oral, dose not given, clinical literature data	400 nM
C=CC(=O)N1C[C@H](Nc2ncnc3[nH]ccc23)CC[C@@H]1C	adjusted geometric mean	human, plasma	oral, 50 mg single dose, without rifampicin	272 ng/mL
CC(=O)O[C@H]1C(=O)[C@@]2(C)[C@H]([C@H](OC(=O)c3ccccc3)[C@]3(O)C[C@H](OC(=O)[C@H](O)[C@@H](NC(=O)c4ccccc4)c4ccccc4)C(C)=C1C3(C)C)[C@]1(OC(C)=O)CO[C@@H]1C[C@@H]2O	–	human patients on any protease inhibitor, plasma	iv, 100 mg/m^2 over 3 h, cycle 1	1470 ± 680 nM
O=C(NC[C@H](O)CO)c1ccncc1Nc1ccc(I)cc1F	–	human	oral, 60 mg, single dose with FOLFIRI	386 ng/mL

Excerpt of the above:
SMILES	test	system	setting	Cmax
O=C(NC[C@H](O)CO)c1ccncc1Nc1ccc(I)cc1F	–	human	oral, 60 mg, single dose with FOLFIRI	386 ng/mL
O=C(Cc1cccc(OC(F)(F)F)c1)Nc1ccc(CCCCc2nnc(NC(=O)Cc3ccccn3)s2)nn1	–	human patients, plasma	oral, 150 mg three times daily fasted, cycle 1 day 15 steady state	1440 ng/mL
